Assay results collected from several papers.
Each line is one published result; not all experiments were run side by side. Numbers after ± are the reported error.

For Cn1nc(-c2ccc(CC(=O)Nc3cc(C(C)(C)C)on3)cc2)c2c(N)ncnc21, the EC50 was 710 ± 70 nM (KM12; cell viability).
Cc1cc(NC(=O)c2cccc(NC(=O)C3=CC(C)(C)CC3=O)c2)ccc1Nc1nccc(-c2cccnc2)n1 gave an EC50 of 6710 ± 980 nM (SH-SY5Y MKK7-activated cells; c-Jun Ser73 phosphorylation, inhibitor, Western blot; 6 h, together with: doxycycline).
With COc1ccc(C2(CNC(=O)[C@H](Cc3c[nH]c4ccccc34)NC(=O)Nc3ccc([N+](=O)[O-])cc3)CCCCC2)cc1 the EC50 was 12400 ± 3800 nM (human neutrophils; chemotaxis, agonist).
For COCCCn1nc(-c2ccc(CC(=O)Nc3cc(C(C)(C)C)on3)cc2)c2c(N)ncnc21, the EC50 was 300 ± 20 nM (KM12; cell viability).
The EC50 of COc1ccc2nc(SCC(=O)Nc3ccc(SC)cc3)[nH]c2c1 is reported as 500 nM (human neutrophils; calcium mobilization, agonist).
COc1ccc(NC(=O)N[C@@H](Cc2ccc(C#N)cc2)C(=O)NCC2(c3ccc(O)cc3)CC2)cc1 gave an EC50 of 21800 nM (N9 mouse microglia; MTT; 24 h, resting conditions).
For O=C(Nc1ccc([N+](=O)[O-])cc1)N[C@@H](Cc1c[nH]c2ccccc12)C(=O)NCC1(c2ccccn2)CCCCC1, the EC50 was 680 nM (human neutrophils; Ca2+ mobilization, agonist; together with: probenecid 2.5 mM).
O=C1Nc2cccc(C#CC3(O)CCNCC3)c2/C1=C/c1cc2ccccc2[nH]1 has an EC50 of < 50 nM (C8161.9; gelatin degradation, inhibitor; short-term).
For CCN1CCN(Cc2ccc(Nc3ncc4c(n3)Sc3ccccc3C(=O)N4C)cc2C(F)(F)F)CC1, the EC50 was 7260 nM (HCT-116; cell growth, CellTiter-Glo; 96 h).
With Cc1cc(NC(=O)c2cccc(NC(=O)C3=CC(C)(C)CCC3=O)c2)ccc1Nc1nccc(-c2cccnc2)n1 the EC50 was 616 ± 169 nM (SH-SY5Y MKK7-activated cells; c-Jun Ser63 phosphorylation, inhibitor, HTRF; 6 h, together with: doxycycline).
For CCOc1ccc2nc(SCC(=O)Nc3ccc(Cl)cc3)[nH]c2c1, the EC50 was 1300 nM (human neutrophils; calcium mobilization, agonist).
COC(=O)C1(C)C=C(C(=O)Nc2cccc(C(=O)Nc3ccc(Nc4nccc(-c5cccnc5)n4)c(C)c3)c2)C(=O)C1 (centres unmarked) gave an EC50 of 220 ± 25 nM (SH-SY5Y MKK7-activated cells; c-Jun Ser63 phosphorylation, inhibitor, HTRF; 6 h, together with: doxycycline).
The EC50 of C=CC(=O)Nc1cccc(N(C(=O)OCc2ccc(F)cc2)c2ccnc(Nc3ccn(C)n3)n2)c1 is reported as 19 ± 3.6 nM (Ba/F3 HER2 GSP insertion; cell growth; inactive means EC50 above 10 µM).
With COC(=O)c1ccc(NC(=O)CSc2nc3ccc(OC)cc3[nH]2)cc1 the EC50 was 900 nM (human neutrophils; calcium mobilization, agonist).

A few entries again:
For Cn1nc(-c2ccc(CC(=O)Nc3cc(C(C)(C)C)on3)cc2)c2c(N)ncnc21, the EC50 was 710 ± 70 nM (KM12; cell viability).
